Published values of several laboratories.
Compare with care: the assays were run in different laboratories. Several values in a cell are separate wells, animals, samples, runs or records. ± gives the spread as reported.

O=c1cc(-c2ccc(O)cc2)oc2cc(O)cc(O)c12 gave a neurite length of 32.5 to 36.5 µm (SH-SY5Y Aβ-GFP cells, scrambled shRNA; 5 µM).
C[C@@H]1C[C@@H]([C@H](O)CC2CC(=O)NC(=O)C2)C(=O)[C@@H](C)C1 has an efficacy of 32% (LDR; silenced CMV-GFP reporter derepression, qHTS).
With CC1=C(O)C(=O)C=C2C1=CC=C1[C@@]2(C)CC[C@@]2(C)[C@@H]3C[C@](C)(C(=O)O)CC[C@]3(C)CC[C@]12C the MyBP-C level was 3.5% (MYBPC3 iPSC cardiomyocytes; plate-normalised; concentration not given, 24 h, hit retest).
The growth percent of COc1cccc2c1C(=O)c1c(O)c3c(c(O)c1C2=O)C[C@@](O)(C(=O)CO)C[C@@H]3O[C@H]1C[C@H](N)[C@H](O)[C@H](C)O1 is reported as -59.4% (SiHa; sulforhodamine B; 10 µg/mL, 48 h; negative means cell kill).
Nc1ncnc2c1ncn2[C@@H]1O[C@@H]2COP(=O)(O)O[C@H]3[C@@H](O)[C@H](n4cnc5c(=O)[nH]cnc54)O[C@@H]3COP(=O)(O)O[C@H]2[C@H]1O — result for “pathway fold enrichment”: 5.21 (HFF-1; RNA sequencing, measured: Cytokine Signaling; upregulated pathway; baseline: Zika virus alone).
COc1ccc2c(c1)[nH]c1c(C)nccc12 gave a DNA methylation of 86.8% (DU-145; bisulfite pyrosequencing, measured: RASSF1A promoter CpG site 5; 10 µM, 16 h).
CN1CC[C@@]2(C)c3cc(OC(=O)Nc4ccccc4)ccc3N(C)[C@@H]12 — result for “APP protein decrease”: no more than 70% (mouse primary cortical neurons; up to 1 µM).
Under “G2 phase cells”, CC(c1ccccc1)(c1ccc(O)cc1)c1ccc(O)cc1 is recorded as 17.5 ± 5.58% (HepG2 spheroids; Hoechst flow cytometry; 10 µM, 24 h).
COc1cc(OC)c(C=C2C(O)=Nc3ccccc32)c(OC)c1: “fold change in IC50” 2.2 (HD-MB03; added: ribociclib 5 µM; baseline: ribociclib over DMSO).
Cn1nccc1Nc1nccc(-c2ccn([C@H](CO)c3ccc(Cl)c(F)c3)c(=O)c2)n1 has a PI-positive cells of 5.58 count and 7.58 count and 8 count (HCT116; IncuCyte; concentration not given, 28 (unit not given)).
For O=c1cc(-c2ccccc2)oc2c(O)c(O)ccc12, the neurite length was 32.5 to 36.5 µm (SH-SY5Y Aβ-GFP cells, scrambled shRNA; 5 µM).
Under “point of departure”, Oc1cc(Cl)ccc1Oc1ccc(Cl)cc1Cl is recorded as 28.8 µM (HepG2; protein level, measured: TNFAIP3 (A20); 1 h, distribution mode 2).
CCN(CC)c1ccc(C=NNC(=O)CSc2nc3ccccc3c(=O)n2Cc2ccc(S(N)(=O)=O)cc2)c(O)c1 gave a CC50 of greater than 100 µM (HT-29; NCI five-dose screen).
C=CC(=O)Nc1cc(Nc2nccc(-c3cn(C)c4ccccc34)n2)c(OC)cc1N(C)CCN(C)C has a GI50 of 0.343 µM (NCI-H1975 (EGFR L858R/T790M); cell growth, CellTiter-Glo; 72 h).
CN1CCN(C2(CNC3CCN(c4cccc(-c5cc6cc(F)ccc6[nH]5)c4)CC3)CCC2)CC1 has a CC50 of 5.88 µM (SF-539).
For CC(C)[C@H](N)C(=O)N1CCC[C@H]1B(O)O, the IL-1beta release was 210 pg/mL and 220 pg/mL and 239 pg/mL (Ker-CT keratinocytes, GSDMD knockout; inducer, ELISA; concentration not given, compound alone).
The fold change of O=C1N(Cc2ccccc2Cl)c2ccccc2C12NN=C(c1ccccc1)S2 (centres unmarked) is reported as 1.79 (MDA-MB-468; gene expression array, measured: HILPDA mRNA; 10 µM, 12 h; baseline: untreated, up).
O=C1CCP(=S)(c2ccccc2)CC1 — result for “late apoptotic cells”: 87.5% (SW480; Annexin V-FITC/PI flow cytometry; IC50, 72 h).
O=c1c(O)c(-c2ccc(O)c(O)c2)oc2cc(O)cc(O)c12: “neurite process number” 3.7 to 3.8 (SH-SY5Y Aβ-GFP cells, scrambled shRNA; 5 µM).
With C[C@]12CC[C@H](O)C[C@H]1CC[C@@H]1[C@@H]2CC[C@]2(C)[C@@H](c3ccc(=O)oc3)CC[C@]12O the mRNA level was 0.788 and 0.792 and 0.914 (MCF7; RT-qPCR, measured: NRIP1; 50 nM, 48 h, unit not given, added: estradiol; baseline: untreated).
COc1c(CCC[P+](c2ccccc2)(c2ccccc2)c2ccccc2)cc2c(c1OC)OCO2.[I-] gave an LC50 of greater than -4 log M (RPMI-8226; SRB).
The CC50 of CC(C)N1CCC(NC2CCN(c3cccc(-c4cc5cc(F)ccc5[nH]4)c3)CC2)CC1 is reported as greater than 100 µM (HT-29).
C[C@@H]1O[C@@H](O[C@H]2C[C@@H](O)[C@]3(CO)[C@H]4[C@H](O)C[C@]5(C)[C@@H](C6=CC(=O)OC6)CC[C@]5(O)[C@@H]4CC[C@]3(O)C2)[C@H](O)[C@H](O)[C@H]1O gave a MyBP-C level of 13.9% (MYBPC3 iPSC cardiomyocytes; plate-normalised; concentration not given, 24 h, hit retest).
With Nc1ncc(-c2nc(N3CCOCC3)nc(N3CCOCC3)n2)c(C(F)F)n1 the GI50 was 0.046 µM (LoVo; 72 h).
Under “G1 phase cells”, Oc1ccc(C2(c3ccc(O)cc3)c3ccccc3-c3ccccc32)cc1 is recorded as 77.1 ± 3.96% (HepG2 spheroids; Hoechst flow cytometry; 0.01 µM, 96 h).
CNC(=O)Oc1cc(C)c(SC)c(C)c1 has an EC10 of 3.47 µM (SH-SY5Y; neurite outgrowth inhibition, phase-contrast imaging; 24 h, nominal concentration).
Under “normalized enrichment score”, C/C=C(/C)C(=O)O[C@H]1C(C)=C2[C@H]([C@@H]1OC(=O)CCCCCCC)[C@@](C)(OC(C)=O)C[C@H](OC(=O)CCC)[C@@]1(O)[C@H]2OC(=O)[C@@]1(C)O is recorded as 2.26 (HEK-293T; RNA-seq GSEA, measured: Hallmark protein secretion; 500 nM, 6 h; direction not given).
Under “spheroid area increase”, O=S(=O)(c1ccc(O)cc1)c1ccc(O)cc1 is recorded as 156% (HepG2 spheroids; planimetry; 5 µM, 0 to 24 h; baseline: mean area of 72 h spheroids).
OC(c1ccc(-c2ccc(CN3CCN(Cc4ccncc4)CC3)cc2)c(F)c1)(C(F)(F)F)C(F)(F)F has an inhibition of 50% (mouse Th17 cells; qRT-PCR, measured: Il17a mRNA; 100 nM, 4 days).
COc1c(C)c2c(c(O)c1C/C=C(\C)CCC(=O)O)C(=O)OC2 has an IC50 of 0.525 µM (SF-295; cell proliferation; brain cancer).
COc1cc(CCC[P+](c2ccccc2)(c2ccccc2)c2ccccc2)c(OC)c2c1OCO2.[I-] has a TGI of -4.39 log M (HT-29; SRB).
Cc1cc(C(C)(C)c2ccc(O)c(C)c2)ccc1O — result for “cell cycle distribution”: “no effect” (HepG2 spheroids; flow cytometry; concentration not given, 96 h).

Repeated from above:
COc1ccc2c(c1)[nH]c1c(C)nccc12 gave a DNA methylation of 86.8% (DU-145; bisulfite pyrosequencing, measured: RASSF1A promoter CpG site 5; 10 µM, 16 h).
CN1CC[C@@]2(C)c3cc(OC(=O)Nc4ccccc4)ccc3N(C)[C@@H]12 — result for “APP protein decrease”: no more than 70% (mouse primary cortical neurons; up to 1 µM).
For O=c1cc(-c2ccccc2)oc2c(O)c(O)ccc12, the neurite length was 32.5 to 36.5 µm (SH-SY5Y Aβ-GFP cells, scrambled shRNA; 5 µM).
COc1cc(OC)c(C=C2C(O)=Nc3ccccc32)c(OC)c1: “fold change in IC50” 2.2 (HD-MB03; added: ribociclib 5 µM; baseline: ribociclib over DMSO).
OC(c1ccc(-c2ccc(CN3CCN(Cc4ccncc4)CC3)cc2)c(F)c1)(C(F)(F)F)C(F)(F)F has an inhibition of 50% (mouse Th17 cells; qRT-PCR, measured: Il17a mRNA; 100 nM, 4 days).
